Measured values collected from several papers.
Compare with care: the assays were run in different laboratories. “And” joins repeats or separate records; there may be more than shown. ± marks the error that the study gave.

O=C1CC[C@H](N2Cc3cc(-c4ccn5ncc(Cl)c5n4)ccc3C2=O)C(=O)N1 — log2 fold change (MOLM-13; RNA-seq, item: MCM4 mRNA; 200 nM, 24 h; relative to: DMSO): -3.3
CCc1ccc(OCc2nnc(SC3CCCC3=O)n2C(C)c2ccccc2)cc1 (stereo not drawn) — toxicity (HEK293T FOPFlash-transfected; viability, PrestoBlue; 10 µM, 24 h): 26.4%
COC(=O)c1cc(NC2=NC(=O)C(=Cc3ccc(N(C)C)cc3)S2)ccc1OC(C)=O — metabolite level (MCF7; GC-MS, item: 1,3-propanediol; 1 µM; relative to: DMSO): -1.03 fold change
CNS(=O)(=O)Nc1nccc(Cc2c(C)c3ccc(Oc4ncccc4F)cc3oc2=O)c1F — IC50 (DMS-114; cell viability; 7 days): > 1 µM
COc1ccccc1-c1ccncc1C(=O)Nc1nnc(OCc2ccc(Cl)cc2)s1 — colony survival (MDA-MB-436 (BRCA1 mutant); colony formation; 0.75 µM; relative to: untreated control): 54.1%
Cc1ccncc1.[Cl-].[Cl-].[Ru+2].c1cc(-c2ccc3cccnc3n2)nc(-c2ccc3cccnc3n2)c1.c1ccc2cc3nc4c5cccnc5c5ncccc5c4nc3cc2c1 — phototoxicity index (A-375; resazurin; added: light 733 nm, 100 J/cm2; relative to: dark EC50 over light EC50): 29
N#Cc1cccc(/C=C/C(=O)c2ccc(O)cc2)c1 — fold change (U-87 MG; item: ANKRD1; concentration not given; relative to: untreated): 1160
CC(C)(C)n1cc(CN(Cc2cn(CC(=O)O)nn2)Cc2cn(C(C)(C)C)nn2)nn1 — amount of labelled product (OVCAR-5, HPG-incorporated; live-cell CuAAC, LC-ESI-MS/MS; membrane proteins; 200 µM, 10 min, adherent cells, no pre-treatment, added: 500 µM sodium ascorbate, CuSO4): 2.76 pg/µg protein and 3.09 pg/µg protein and 3.25 pg/µg protein
CC(C)(C)c1cc(-c2ccc3cccnc3n2)nc(-c2ccc3cccnc3n2)c1.[Cl-].[Cl-].[Ru+2].c1cnc2c(c1)ccc1cccnc12 — phototoxicity index (A-375; resazurin; added: light 633 nm, 100 J/cm2; relative to: dark EC50 over light EC50): 2
CC(C)c1ccc(N(C)c2ccc3c(c2)OCC[C@H]3CNc2cnccc2C(=O)O)cc1 — IC50 (HCC1599; cell viability, CellTiter-Glo; 7 days): 0.00564 µM
Cn1ncc2cc(-c3cncc(Cl)c3N3CCC4(CCNC4=O)CC3)ccc21 — log2 fold change (LS174T; gene expression, microarray, item: TIPARP mRNA; concentration not given, 24 h; relative to: untreated cells): -2.57
C=CC(=O)N1[C@H](c2ccc3c(c2)OCO3)c2[nH]c3ccccc3c2C[C@@H]1C(=O)NC1CC1 — neuron degeneration (rat DRG neurons; 0.004572 µM, 48 h, added: vincristine 40 nM): 83.3% and 83%
COc1ccc(C([O-])=CC(=O)c2ccc(C(C)(C)C)cc2)cc1.[Ru+2].c1ccc(-c2ccnc3c2ccc2c(-c4ccccc4)ccnc23)cc1.c1ccc(-c2ccnc3c2ccc2c(-c4ccccc4)ccnc23)cc1 — phototoxicity index (HL-60; relative to: dark IC50 over light IC50): 2
CC(C)(C)c1cc(-c2ccc3cc4ccccc4nc3n2)nc(-c2ccc3cc4ccccc4nc3n2)c1.Cc1ccncc1.[Cl-].[Cl-].[Ru+2].c1ccc2cc3nc4c5cccnc5c5ncccc5c4nc3cc2c1 — EC50 (A-375; resazurin; added: light 633 nm, 20 mW, 100 J/cm2): 12.7 µM
CN1CCCNC(=O)c2cccc(c2)C(=O)NCCCN(C)CCCNc2cccc3c2C(=O)c2cccc(c2C3=O)NCCC1 — log2 fold change (SAS; RNA-Seq, item: NME6 mRNA; 1 µM, 6 h; relative to: untreated cells): 0.628
O=C(N/N=C/c1cc[n+](CC2CC2)c2ccccc12)c1cc(C(=O)N/N=C/c2cc[n+](CC3CC3)c3ccccc23)ncn1 — ΔTm (MYC parallel G4 DNA; FRET melting; 1 µM, DNA 0.2 µM, added: duplex DNA competitor 10 µM): 4.8 ± 0.2 °C
COc1cccc(OC)c1-c1cc(C(=O)NC2(C(=O)O)C3CC4CC(C3)CC2C4)nn1-c1ccc(C(=O)NCCNC(=O)[C@H](CCCCNC(=O)[C@H](CC(C)C)NC(=O)C2OC2C(=O)O)NC(=O)CN2CCN(CC(=O)[O-])CCN(CC(=O)[O-])CCN(CC(=O)[O-])CC2)cc1C(C)C.[177Lu+3] (mixture of isomers) — adduct formation (HT-29; SDS-PAGE autoradiography; concentration not given, 4 h; relative to: radioactive signal): 53.8%
C=C1CC2(C(=O)OC)C=C(C(=O)OC(C)(C)C)C(=O)C1C2 (stereo not drawn) — luminescence (AP-1 reporter HEK293; AP-1 reporter gene, luciferase reporter; 3 µM, 6 h, added: PMA 6 ng/mL; higher = more transcription): 6750 a.u.
O=C(NCc1cc(F)cc(F)c1)[C@@]1(O)CCN(c2ccc3[nH]ccc3c2)C1=O — efficacy (RXF 393; colony formation, soft agar clonogenic; kidney tumour): 71%
O=C(Nc1ccc(Sc2ccc3c(/C=C/c4ccccn4)n[nH]c3c2)cc1)C1CCCN1 (stereo not drawn) — GI50 (Ba/F3 TEL-VEGFR1; cell growth, CCK-8): 4.38 µM
[177Lu+3].[Cl-].[Cl-].[Cl-] — live cells (4T1; flow cytometry; 0.4 Bq/cell, 72 h): 65.8%
CCN(CC)CC(=O)Nc1cccc(-n2cc(-c3ccc4ccc(-c5cn(-c6cccc(NC(=O)CN(CC)CC)c6)nn5)cc4c3)nn2)c1 — fold regulation (RCC4; PCR angiogenesis array, item: PF4; 5 x IC50, 6 h, normoxia; relative to: untreated): 1.06
Fc1cncc(-c2ccc3[nH]c4ncnc(N[C@H]5CC[C@H](N6CCOCC6)CC5)c4c3c2)c1 — IRAK4 phosphorylation (OCI-Ly3; immunoblot; 10 µM, 24 h): inhibited
Cc1cc(Cl)cc(-c2ccnc3cc(CN4C(=O)C5C(C4=O)C5(C)C)sc23)c1C[C@@H]1CNCCO1 (stereo partly drawn) — cells in G1 phase (CHP-212 parental (wild-type USP7); PI flow cytometry; 1 µM, 24 h): 77.3% and 74.1% and 69.2%
CCN(C(=O)c1cc(F)ccc1Oc1nncnc1N1CCC2(C1)CN([C@H](CCCN(C)CCOC)C(C)C)C2)C(C)C — GI50 (COLO 205; cell growth or viability; 72 h): > 10 µM
CC(=O)OC[C@H]1O[C@@H](n2cc(CSc3nc4ccccc4n3Cc3cn([C@@H]4O[C@H](COC(C)=O)[C@@H](OC(C)=O)C(OC(C)=O)[C@H]4OC(C)=O)nn3)nn2)[C@H](OC(C)=O)C(OC(C)=O)[C@@H]1OC(C)=O (stereo in doubt) — cytotoxicity (Caco-2; MTT; 62.5 ppm): 87.8%
Cc1ncsc1-c1ccc(C(C)NC(=O)C2CC(O)CN2C(=O)C(NC(=O)CCCCCCCCCCN2CCCC(Nc3ncc(Cl)c(Nc4ccccc4S(=O)(=O)C(C)C)n3)C2)C(C)(C)C)cc1 (stereo not drawn) — log2 fold change (22Rv1; RNA-seq, item: ZNF605 mRNA; concentration not given; relative to: DMSO): -1.13
COCCn1cc(COc2cccc(Cc3cnc(NC(=O)CSc4nc(C)cc(C)n4)s3)c2)nn1 — inhibition (PC-3M-luc; colony formation, colony forming; 25 µM): 44 ± 7.8%
CO[C@@H]1[C@@H](OC(N)=O)[C@@H](O)[C@H](Oc2ccc3c(O)c(NC(=O)c4ccc(O)c(CC=C(C)C)c4)c(=O)oc3c2C)OC1(C)C — colony count (HCT-116 BRCA2-/-; 300 µM, replicate 1): 0.1
CCCCCCCCCCCC(=O)N[C@H](CO)C[C@@H](O)c1ccccc1 — LacCer 16 level (HeLa; HPLC-MS/MS; 1 µM, 24 h): 23400 pmol/sample and 20800 pmol/sample and 21600 pmol/sample

A few entries again:
O=C1CC[C@H](N2Cc3cc(-c4ccn5ncc(Cl)c5n4)ccc3C2=O)C(=O)N1 — log2 fold change (MOLM-13; RNA-seq, item: MCM4 mRNA; 200 nM, 24 h; relative to: DMSO): -3.3
CC(C)(C)c1cc(-c2ccc3cccnc3n2)nc(-c2ccc3cccnc3n2)c1.[Cl-].[Cl-].[Ru+2].c1cnc2c(c1)ccc1cccnc12 — phototoxicity index (A-375; resazurin; added: light 633 nm, 100 J/cm2; relative to: dark EC50 over light EC50): 2
CC(C)(C)c1cc(-c2ccc3cc4ccccc4nc3n2)nc(-c2ccc3cc4ccccc4nc3n2)c1.Cc1ccncc1.[Cl-].[Cl-].[Ru+2].c1ccc2cc3nc4c5cccnc5c5ncccc5c4nc3cc2c1 — EC50 (A-375; resazurin; added: light 633 nm, 20 mW, 100 J/cm2): 12.7 µM
Cc1ncsc1-c1ccc(C(C)NC(=O)C2CC(O)CN2C(=O)C(NC(=O)CCCCCCCCCCN2CCCC(Nc3ncc(Cl)c(Nc4ccccc4S(=O)(=O)C(C)C)n3)C2)C(C)(C)C)cc1 (stereo not drawn) — log2 fold change (22Rv1; RNA-seq, item: ZNF605 mRNA; concentration not given; relative to: DMSO): -1.13
